Assay results gathered from unrelated publications.
Lines come from different studies, so protocols differ. Several values in a cell are separate wells, animals, samples, runs or records. ± marks the error that the study gave.

| SMILES | host | sample | route | dose | time | setting | Cmin |
| --- | --- | --- | --- | --- | --- | --- | --- |
| C[C@H](CCC(=O)O)[C@H]1CC[C@H]2[C@@H]3CC[C@@H]4C[C@H](OS(=O)(=O)O)CC[C@]4(C)[C@H]3CC[C@]12C | human | plasma |  |  |  | control | 283 ± 16 nM |
| CCOc1c([C@H](C)n2nc(C)c3c(N)ncnc32)cc(Cl)c(F)c1[C@@H]1CNC(=O)C1 | human patients | plasma | oral | 30 mg | day 15 | all cohorts | 343 ± 203 nM |
| O=C(O)CCC(=O)O.[2H]C([2H])([2H])Oc1cc(C)c2[nH]ccc2c1CN1CC[C@@H](C2CC2)C[C@H]1c1ccc(C(=O)O)cc1 | human | plasma |  | 300 mg once daily | day 10 | multiple ascending dose, geometric mean | 3230 ng/mL |
| Cn1cc(-c2cn3nccc3c(-c3cnn([C@]4(CC#N)C[C@@H](C#N)C4)c3)n2)cn1 | healthy humans | plasma | oral | 10 mg twice daily | day 200 | fed | 55 ng/mL |
| CCCCOCCOc1ccc(-c2ccc3c(c2)/C=C(/C(=O)Nc2ccc([S@@+]([O-])Cc4cncn4CCC)cc2)CCCN3CC(C)C)cc1 | human, mild hepatic impairment | plasma | oral | 150 mg | day 1 |  | 80.7 ng/mL |
| Nc1c2c(cc3c1CCC3)CCC2 | human | plasma | oral | 300 mg twice daily of GDC-2394 | day 7 | multiple ascending dose | 13.9 ng/mL |
| C[C@H](CCC(=O)NCCS(=O)(=O)O)[C@H]1CC[C@H]2[C@@H]3CC[C@@H]4C[C@H](O)CC[C@]4(C)[C@H]3C[C@H](O)[C@]12C | human | plasma |  |  |  | endogenous baseline diurnal | 5.18 ± 1.58 nM |
| Fc1ccc([C@@H]2CCNC[C@H]2COc2ccc3c(c2)OCO3)cc1 | human, CYP2D6 poor metabolizers | plasma | oral | 20 mg |  | steady state | 26 ng/mL |
| O=C(O)CCCCCCCCCCCCC(=O)O | human | plasma |  |  |  | endogenous baseline diurnal | 33.4 ± 2.5 nM |
| Cc1cc(/C=C/C#N)cc(C)c1Nc1ccnc(Nc2ccc(C#N)cc2)n1 | human, haemodialysis patients | plasma | oral | dose not given |  | steady state, fixed-dose combination | 50 ng/mL |
| O=C(O)CCCCCCCCCCCCCCCCC(=O)O | human | plasma |  |  |  | endogenous baseline diurnal | 61.2 ± 4 nM |
| C[C@@H]1CCO[C@H]2Cn3cc(C(=O)NCc4ccc(F)cc4F)c(=O)c(O)c3C(=O)N12 | human, normal renal function | plasma | oral | dose not given |  | steady state, fixed-dose combination | 1300 ng/mL |
| C[C@H](CCC(=O)NCC(=O)O)[C@H]1CC[C@H]2[C@@H]3[C@H](O)C[C@@H]4C[C@H](O)CC[C@]4(C)[C@H]3CC[C@]12C | human | plasma |  |  |  | endogenous baseline diurnal | 74.7 ± 11.1 nM |
| Cc1ncnc2c1ccn2[C@@H]1C[C@H](Oc2cc(C(F)F)c(F)c3c2CNCC3)[C@@H](O)[C@H]1O | human |  | oral | 6 mg twice daily |  |  | 17.1 ng/mL |
| C[C@@H]1CCO[C@H]2Cn3cc(C(=O)NCc4ccc(F)cc4F)c(=O)c(O[C@@H]4O[C@H](C(=O)O)[C@@H](O)[C@H](O)[C@H]4O)c3C(=O)N12 | human, haemodialysis patients | plasma |  | dose not given |  | steady state | 800 ng/mL |
| CCN(CCO)CCCC(C)Nc1ccnc2cc(Cl)ccc12 (stereo not shown) | human | whole blood | oral | 800 mg |  |  | 1530 ng/mL and 1900 ng/mL |
